Experimental data gathered from unrelated publications.
Each numbered part is a random draw from the data of one study; scales do not carry over between parts. “And” joins repeats or separate records; there may be more than shown.
Chain of UniProt Q16853 (whole entry, looked up): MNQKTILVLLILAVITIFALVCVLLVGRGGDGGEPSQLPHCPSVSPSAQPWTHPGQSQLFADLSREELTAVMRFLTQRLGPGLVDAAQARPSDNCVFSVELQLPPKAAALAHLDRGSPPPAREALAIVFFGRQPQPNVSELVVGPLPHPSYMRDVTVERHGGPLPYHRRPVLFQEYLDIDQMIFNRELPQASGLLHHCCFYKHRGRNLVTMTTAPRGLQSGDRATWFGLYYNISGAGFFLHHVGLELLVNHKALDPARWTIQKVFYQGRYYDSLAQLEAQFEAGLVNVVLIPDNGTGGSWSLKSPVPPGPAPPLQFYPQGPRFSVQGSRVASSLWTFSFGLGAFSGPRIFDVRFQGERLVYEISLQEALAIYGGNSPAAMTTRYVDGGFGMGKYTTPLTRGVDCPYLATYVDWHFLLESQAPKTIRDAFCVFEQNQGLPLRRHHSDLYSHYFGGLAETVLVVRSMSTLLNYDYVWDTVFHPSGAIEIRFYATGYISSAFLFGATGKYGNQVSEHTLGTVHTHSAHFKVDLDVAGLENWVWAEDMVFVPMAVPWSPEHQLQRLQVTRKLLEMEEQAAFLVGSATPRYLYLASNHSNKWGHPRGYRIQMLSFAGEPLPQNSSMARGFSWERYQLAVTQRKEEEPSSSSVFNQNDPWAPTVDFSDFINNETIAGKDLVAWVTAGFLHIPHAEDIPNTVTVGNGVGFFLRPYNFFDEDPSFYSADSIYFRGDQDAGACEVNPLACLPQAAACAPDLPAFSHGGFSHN

Study 1
SMILES: NC/C(=C\F)COc1cc(Cl)cc(-c2cc(=O)[nH]c(=S)n2CC(N)=O)c1
Observed: enzyme activity
Action: inhibitor
Method: fluorescence
MPO: Myeloperoxidase (MPO, Homo sapiens, UniProt P05164)
Chain of UniProt P05164 (whole entry, looked up): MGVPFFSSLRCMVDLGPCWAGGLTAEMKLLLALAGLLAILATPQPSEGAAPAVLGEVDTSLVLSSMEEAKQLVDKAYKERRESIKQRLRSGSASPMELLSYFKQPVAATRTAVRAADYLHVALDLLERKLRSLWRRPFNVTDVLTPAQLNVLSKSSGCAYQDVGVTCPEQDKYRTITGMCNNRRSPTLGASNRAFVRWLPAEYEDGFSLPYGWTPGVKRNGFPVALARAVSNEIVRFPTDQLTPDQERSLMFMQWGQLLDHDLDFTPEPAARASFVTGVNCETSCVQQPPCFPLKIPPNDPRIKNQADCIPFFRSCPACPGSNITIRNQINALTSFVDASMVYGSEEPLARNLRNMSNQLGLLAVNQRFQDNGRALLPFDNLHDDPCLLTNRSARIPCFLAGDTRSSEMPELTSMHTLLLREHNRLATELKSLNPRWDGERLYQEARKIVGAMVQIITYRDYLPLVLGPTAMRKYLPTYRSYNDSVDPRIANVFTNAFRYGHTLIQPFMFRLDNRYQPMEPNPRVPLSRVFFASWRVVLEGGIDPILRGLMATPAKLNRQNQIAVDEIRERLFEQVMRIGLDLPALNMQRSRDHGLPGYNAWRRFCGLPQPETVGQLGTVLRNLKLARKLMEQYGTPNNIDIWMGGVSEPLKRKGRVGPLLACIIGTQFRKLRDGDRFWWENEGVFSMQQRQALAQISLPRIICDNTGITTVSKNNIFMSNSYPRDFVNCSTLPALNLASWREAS
| target | setting | inhibition |
| --- | --- | --- |
| MPO | 10 µM | 95.6% |
| MPO | 300 pM | -8.41% and -2.46% |
| Amine oxidase [copper-containing] 3 (AOC3, Homo sapiens, UniProt Q16853) | 1.5 nM | 4.09% and -2.32% and 5.67% |
| MPO | 0.1235 µM | 41.9% |
| MPO | 13.7 nM | 2.79% |
| MPO | 0.3704 µM | 67.3% |
| MPO | 4.6 nM | -3.63% |
| MPO | 30 µM | 97.8% |

Study 2
SMILES: CCN1/C(=C/C=C2\CCCC(/C=C/C3=[N+](CC)c4ccccc4C3(C)C)=C2NCCCCCCCCN2CCC(Nc3nc4ccccc4n3Cc3ccc(F)cc3)CC2)C(C)(C)c2ccccc21
Cell line: U-87 MG
Tested at: concentration not given
Reference: DMSO
| assay | log2 fold change |
| --- | --- |
| measured: IRAK2 mRNA | 1.19 |
| measured: SYNPO mRNA | -1.56 |
| measured: XYLT2 mRNA | -1.09 |
| measured: FAIM2 mRNA | -1.17 |
| measured: MEF2D mRNA | 0.871 |
| measured: FAM171B mRNA | 0.919 |
| measured: CENPE mRNA | -1.77 |
| measured: FAM83D mRNA | -2.44 |
| measured: SIK1 mRNA | 1.3 |
| measured: IGFBP3 mRNA | 2.3 |
| measured: FZD2 mRNA | -1.92 |
| measured: IFIT1 mRNA | -2.58 |
| measured: PLPP4 mRNA | -1.26 |
| measured: TRIB3 mRNA | 2.32 |

Study 3
Compound: C[C@@H]1CN(c2ccc(-c3cc(C(=O)NCCOCCOCCOCCOCCNC(=O)Cn4cc(-c5[nH]cc(C(=O)N[C@@H](CC(N)=O)c6ccc(F)c(Cl)c6)c5-c5ccc(Cl)cc5F)cn4)ccc3F)cc2NC(=O)c2c[nH]c(=O)cc2C(F)(F)F)C[C@H](C)N1C
Observed: thermal unfolding
Method: differential scanning fluorimetry
Tested at: 5.5 µM
Direction: higher = more unfolded
WDR5: WD repeat-containing protein 5 (WDR5, Homo sapiens, UniProt P61964)
DCAF1: DDB1- and CUL4-associated factor 1 (DCAF1, Homo sapiens, UniProt Q9Y4B6)
Chain of UniProt Q9Y4B6 (whole entry, looked up): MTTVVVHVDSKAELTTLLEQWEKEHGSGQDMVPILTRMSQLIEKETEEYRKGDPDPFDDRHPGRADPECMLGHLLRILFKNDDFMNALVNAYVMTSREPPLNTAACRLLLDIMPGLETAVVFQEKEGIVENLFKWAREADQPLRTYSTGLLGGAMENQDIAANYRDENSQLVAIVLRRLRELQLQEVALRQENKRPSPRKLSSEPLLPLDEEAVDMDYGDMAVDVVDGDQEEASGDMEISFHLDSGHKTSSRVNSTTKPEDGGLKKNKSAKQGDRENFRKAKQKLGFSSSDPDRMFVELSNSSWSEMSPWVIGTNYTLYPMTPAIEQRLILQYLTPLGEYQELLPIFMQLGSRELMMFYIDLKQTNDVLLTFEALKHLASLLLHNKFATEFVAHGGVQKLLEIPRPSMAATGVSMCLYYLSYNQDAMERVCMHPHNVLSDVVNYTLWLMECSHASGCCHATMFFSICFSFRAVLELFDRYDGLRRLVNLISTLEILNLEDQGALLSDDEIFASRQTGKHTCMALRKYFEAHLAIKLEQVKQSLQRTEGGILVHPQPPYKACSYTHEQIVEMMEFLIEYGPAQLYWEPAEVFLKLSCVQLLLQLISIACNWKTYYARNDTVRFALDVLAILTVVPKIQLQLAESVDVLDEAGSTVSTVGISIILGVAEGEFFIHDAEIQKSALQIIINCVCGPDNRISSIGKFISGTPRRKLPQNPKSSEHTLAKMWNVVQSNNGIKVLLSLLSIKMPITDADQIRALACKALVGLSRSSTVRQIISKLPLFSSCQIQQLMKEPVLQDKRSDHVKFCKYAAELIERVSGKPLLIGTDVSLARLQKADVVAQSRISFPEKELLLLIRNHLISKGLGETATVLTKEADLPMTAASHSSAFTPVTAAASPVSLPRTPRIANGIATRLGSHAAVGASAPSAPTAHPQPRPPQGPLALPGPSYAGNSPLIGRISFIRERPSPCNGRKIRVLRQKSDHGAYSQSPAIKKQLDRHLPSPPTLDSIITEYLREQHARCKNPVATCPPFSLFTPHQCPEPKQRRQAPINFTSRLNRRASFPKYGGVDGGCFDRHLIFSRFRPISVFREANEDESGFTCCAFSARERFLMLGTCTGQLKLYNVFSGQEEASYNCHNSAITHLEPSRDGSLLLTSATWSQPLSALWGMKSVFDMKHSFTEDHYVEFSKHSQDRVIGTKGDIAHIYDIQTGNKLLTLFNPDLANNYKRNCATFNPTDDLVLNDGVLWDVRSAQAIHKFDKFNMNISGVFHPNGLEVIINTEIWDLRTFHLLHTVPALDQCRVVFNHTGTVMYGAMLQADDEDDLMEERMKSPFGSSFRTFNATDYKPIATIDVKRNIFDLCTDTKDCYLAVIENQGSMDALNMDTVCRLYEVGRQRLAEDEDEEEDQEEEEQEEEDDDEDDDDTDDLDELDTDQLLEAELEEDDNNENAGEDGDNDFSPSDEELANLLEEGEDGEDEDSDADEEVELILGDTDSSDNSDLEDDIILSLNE
| target | setting | SYPRO Orange fluorescence [a.u.] |
| --- | --- | --- |
| WDR5 | 75.41 °C | 11900 |
| DCAF1 | 84.81 °C | 40000 |
| WDR5 | 74.41 °C | 10100 |
| DCAF1 | 45 °C | 12200 |
| WDR5 | 28.2 °C | 14900 |
| WDR5 | 68.21 °C | 6850 |
| WDR5 | 62.21 °C | 9170 |
| DCAF1 | 27.6 °C | 7760 |
| DCAF1 | 45.4 °C | 12300 |
| DCAF1 | 49.2 °C | 14000 |
| WDR5 | 72.21 °C | 7740 |

Study 4
Compound: Cc1ncsc1-c1ccc(C(CO)NC(=O)C2CC(O)CN2C(=O)C(C(C)C)n2cc(-c3ccc(COc4c(-c5c(C)c(F)cc6[nH]ncc56)c(C5CC5)cc5c(N6CC7CC6CN7)nc(OC6CCOCC6)nc45)cc3)nn2)cc1 (stereo not drawn)
Method: qRT-PCR
Species: mouse, PK-59 xenograft
Sample: tumour
Notes: unit not given
| assay | setting | scale | mRNA level |
| --- | --- | --- | --- |
| measured: MYC | 30 mg/kg, 24 h | reference: vehicle | 0.328 and 0.434 and 0.343 |
| measured: ETV4 | 30 mg/kg, 2 h | reference: vehicle | 1.14 and 0.792 and 0.747 |
| measured: MYC | 10 mg/kg, 2 h | reference: vehicle | 0.786 and 0.705 and 0.484 |
| measured: ETV4 | 10 mg/kg, 6 h | reference: vehicle | 0.464 and 0.745 and 0.846 |
| measured: SPRY4 | intravenous, 30 mg/kg, 144 h | reference: vehicle, same time point | 0.00452 and 0.00328 |
| measured: FOSL1 | intravenous, 30 mg/kg, 24 h | reference: vehicle, same time point | 0.000864 and 0.000767 and 0.000875 |
| measured: FOSL1 | intravenous, 30 mg/kg, 48 h | reference: vehicle, same time point | 0.000675 and 0.000615 |
| measured: ETV4 | 30 mg/kg, 144 h | reference: vehicle | 0.247 and 0.317 |
| measured: FOSL1 | intravenous, 10 mg/kg, 72 h | reference: vehicle, same time point | 0.00392 and 0.00386 and 0.00353 |

Repeated from above (study 1):
| target | setting | inhibition |
| --- | --- | --- |
| MPO | 10 µM | 95.6% |
| MPO | 300 pM | -8.41% and -2.46% |
| Amine oxidase [copper-containing] 3 (AOC3, Homo sapiens, UniProt Q16853) | 1.5 nM | 4.09% and -2.32% and 5.67% |
| MPO | 0.1235 µM | 41.9% |
| MPO | 13.7 nM | 2.79% |
| MPO | 0.3704 µM | 67.3% |
